{"data": "Assay results of several laboratories", "Nuclear receptor subfamily 2 group C member 2 ligand-binding domain": "Nuclear receptor subfamily 2 group C member 2, ligand-binding domain (Homo sapiens, UniProt P49116)", "note": "Protocols differ between the studies behind these lines. pKd: −log10 of the molar value.", "sequence of UniProt P49116 (whole entry, looked up)": "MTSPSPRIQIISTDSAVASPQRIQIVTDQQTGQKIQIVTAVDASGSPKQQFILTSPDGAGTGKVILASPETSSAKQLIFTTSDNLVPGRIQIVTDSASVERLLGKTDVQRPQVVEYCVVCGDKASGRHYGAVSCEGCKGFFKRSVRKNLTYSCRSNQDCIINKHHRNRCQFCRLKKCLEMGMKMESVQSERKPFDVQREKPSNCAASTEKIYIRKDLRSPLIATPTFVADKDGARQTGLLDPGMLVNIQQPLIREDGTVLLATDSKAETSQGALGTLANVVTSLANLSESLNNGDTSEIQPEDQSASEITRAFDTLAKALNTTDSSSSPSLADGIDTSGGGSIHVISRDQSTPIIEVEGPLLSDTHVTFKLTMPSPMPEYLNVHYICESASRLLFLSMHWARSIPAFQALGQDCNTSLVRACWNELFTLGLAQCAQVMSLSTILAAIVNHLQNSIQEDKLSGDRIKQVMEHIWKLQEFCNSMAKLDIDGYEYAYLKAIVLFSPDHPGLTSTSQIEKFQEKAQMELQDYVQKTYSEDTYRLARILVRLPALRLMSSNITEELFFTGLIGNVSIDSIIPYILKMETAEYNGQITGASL"}
{"SMILES": "C[C@@H]1CCO[C@H]2Cn3cc(C(=O)NCc4ccc(F)cc4F)c(=O)c(O)c3C(=O)N12", "system": "human paediatric patients, weight 6 to under sample A kg, plasma", "conditions": "oral, 12.8 mg granules, steady state, geometric mean, population PK post-hoc, N 6", "quantity": "Cmax", "value": "4440 ng/mL"}
{"SMILES": "COc1ncc(-c2nc3c(n2C(C)C)[C@H](c2ccc(Cl)cc2)N(c2cc(Cl)cn(C)c2=O)C3=O)c(OC)n1", "test": "LC-MS/MS, noncompartmental", "system": "human, plasma", "conditions": "oral, 200 mg, C1D1, high-dose, geometric mean", "quantity": "Cmax", "value": "2050 ng/mL"}
{"SMILES": "CC1=NN(c2ccc(C(=O)O)cc2)C(=O)/C1=C\\c1ccc(-c2cc(C)c(C)cc2[N+](=O)[O-])o1", "tested on": "OCI-Ly1", "conditions": "0.1 µM, 120 h", "quantity": "viability", "value": "105%"}
{"SMILES": "C=CCn1c(=O)c2cnc(Nc3ccc(N4CCN(C)CC4)cc3)nc2n1-c1cccc(C(C)(C)O)n1", "system": "human", "conditions": "oral, 125 mg twice daily, monotherapy lead-in, -5 days", "scale": "geometric mean", "quantity": "Cmax", "value": "590 nM"}
{"SMILES": "O=C(COc1ccc(Cl)cc1)NC12CC(c3nnc([C@H]4C[C@@H](OC(F)(F)F)C4)o3)(C1)C2", "system": "healthy human both sexes, plasma", "conditions": "oral, 145 mg once daily, day 1, mean", "quantity": "Cmax", "value": "2040 nM"}
{"SMILES": "CCN1CCN(Cc2ccc(Nc3ncc(F)c(-c4cc(F)c5nc6n(c5c4)[C@H](C)CCC6)n3)nc2)CC1", "system": "human, Phase Ib patients, plasma", "conditions": "400 mg, single dose, mean, together with: fulvestrant", "quantity": "Cmax", "value": "241 ng/mL"}
{"SMILES": "C[C@@H](Nc1cc(F)cc(F)c1)c1cc(C(=O)N(C)C)cc2c(=O)cc(N3CCOCC3)oc12", "system": "human, plasma", "conditions": "oral, 120 mg, day 1 single dose", "quantity": "Cmax geometric mean", "value": "971 ng/mL"}
{"SMILES": "C[C@@](Cc1ccc(O)c(O)c1)(NN)C(=O)O", "tested on": "Nuclear receptor subfamily 2 group C member 2 ligand-binding domain", "test": "SPR imaging", "quantity": "pKd", "value": 7.81}
{"SMILES": "CN1C(=O)[C@@H](NC(=O)c2nnc(Cc3ccccc3)[nH]2)COc2cccnc21", "system": "human, plasma", "conditions": "oral, 600 mg once daily, day 1, geometric mean", "quantity": "Cmax", "value": "5240 ng/mL"}
{"SMILES": "Cc1cc(Nc2nn(-c3ccccc3)c(=O)c3ccccc23)n[nH]1", "tested on": "OCI-Ly1", "conditions": "1 µM, 120 h", "quantity": "viability", "value": "21.2%"}
{"SMILES": "O=C(O)CCC(=O)O.[2H]C([2H])([2H])Oc1cc(C)c2[nH]ccc2c1CN1CC[C@@H](C2CC2)C[C@H]1c1ccc(C(=O)O)cc1", "system": "human, plasma", "conditions": "100 mg twice daily, day 10, multiple ascending dose, geometric mean", "quantity": "Cmax", "value": "4900 ng/mL"}
{"SMILES": "CC(C)[C@H](N)C(=O)NCCCS(=O)(=O)O", "system": "human, plasma", "conditions": "oral, 340 mg twice daily days 8-13, once daily day 14, day 14, fed, capsule", "quantity": "Cmax", "value": "8830 ng/mL"}
{"SMILES": "CO[C@H]1C[C@@H]2CC[C@@H](C)[C@@](O)(O2)C(=O)C(=O)N2CCCC[C@H]2C(=O)O[C@H]([C@H](C)C[C@@H]2CC[C@@H](OC(=O)NCCOCCOCCOCCOCCOCCOCCOCCOCCC(=O)N3CCc4cc(Cn5nc(-c6ccc7oc(N)nc7c6)c6c(N)ncnc65)ccc4C3)[C@H](OC)C2)C[C@@H](O)[C@H](C)/C=C(\\C)[C@@H](O)[C@@H](OC)C(=O)[C@H](C)C[C@H](C)/C=C/C=C/C=C/1C", "system": "human patients, plasma", "conditions": "intravenous, 16 mg, cycle 1 day 15, weekly dosing", "quantity": "Cmax", "value": "940 ng/mL"}
{"SMILES": "C=CC(=O)N(C)CCOc1c(N)ncnc1-c1cc(F)cc(NC(=O)c2ccc(C3CC3)cc2F)c1C", "system": "human", "conditions": "oral, 20 mg, day 7, geometric mean, together with: ritonavir", "quantity": "Cmax per dose", "value": "7.95 ng/mL/mg"}
{"SMILES": "CCOc1c([C@H](C)n2nc(C)c3c(N)ncnc32)cc(Cl)c(F)c1[C@@H]1CNC(=O)C1", "system": "human patients, Hodgkin lymphoma, plasma", "conditions": "oral, 30 mg, day 15, geometric mean, monotherapy", "quantity": "Cmax", "value": "2150 nM"}
{"SMILES": "CNC(=O)c1ccc(-c2cnc3ncc(Cc4ccc5ncccc5c4)n3n2)cc1F", "system": "human mild hepatic impairment NCI", "conditions": "oral, 200 mg single dose, geometric mean", "quantity": "Cmax", "value": "1800 ng/mL"}
{"SMILES": "CC1(C)S[C@@H]2[C@H](NC(=O)[C@H](N)c3ccccc3)C(=O)N2[C@H]1C(=O)O", "tested on": "Nuclear receptor subfamily 2 group C member 2 ligand-binding domain", "test": "SPR imaging", "quantity": "pKd", "value": 9.04}
{"note": "Repeated from above:"}
{"SMILES": "CO[C@H]1C[C@@H]2CC[C@@H](C)[C@@](O)(O2)C(=O)C(=O)N2CCCC[C@H]2C(=O)O[C@H]([C@H](C)C[C@@H]2CC[C@@H](OC(=O)NCCOCCOCCOCCOCCOCCOCCOCCOCCC(=O)N3CCc4cc(Cn5nc(-c6ccc7oc(N)nc7c6)c6c(N)ncnc65)ccc4C3)[C@H](OC)C2)C[C@@H](O)[C@H](C)/C=C(\\C)[C@@H](O)[C@@H](OC)C(=O)[C@H](C)C[C@H](C)/C=C/C=C/C=C/1C", "system": "human patients, plasma", "conditions": "intravenous, 16 mg, cycle 1 day 15, weekly dosing", "quantity": "Cmax", "value": "940 ng/mL"}
{"SMILES": "CN1C(=O)[C@@H](NC(=O)c2nnc(Cc3ccccc3)[nH]2)COc2cccnc21", "system": "human, plasma", "conditions": "oral, 600 mg once daily, day 1, geometric mean", "quantity": "Cmax", "value": "5240 ng/mL"}
